Published values from different studies.
Protocols differ between the studies behind these lines. ± marks the error that the study gave.

`N[C@@H]1c2ccccc2OC12CCN(c1cnc3c(N4CCCc5ncccc54)n[nH]c3n1)CC2` — result for “incidence grade ≥3 TEAE”: 56% (patients advanced metastatic solid tumours; oral, 60 mg once daily, pooled RP2D cohorts).
For `O=C(Nc1ccccc1)C1CCN(C(=O)Oc2cccnc2)CC1`, “change in Time score” read 0.6 (psychotropic effects VAS; healthy women; 20 mg; reference: pre-dose baseline, direction not given).
`C=CC(=O)Nc1cc(Nc2nccc(Nc3cc(Cl)c(F)cc3C(C)(C)O)n2)c(OC)cc1N1CC[C@@H](N(C)C)C1`: “patients with pneumonia” 20% (human patients; oral, 400 mg, treatment-emergent adverse events).
For `O[C@H]1CCCN[C@@H]1CCCn1cnc2c(Cl)c(Cl)ccc21`, “median Tmax at steady state” read 5 h (healthy humans, plasma; oral, 150 mg, added: pirfenidone 600 mg).
For `Clc1ccc(-c2ccccc2)cc1`, “blood urea nitrogen” read 18 ± 4 mg/dL (female Sprague-Dawley rats, serum; inhalation, 23 µg/rat, 4 h after exposure).
Under “dose fraction in permeate”, `Brc1ccc(Oc2cc(Br)c(Br)cc2Br)c(Br)c1` is recorded as 18% (ultrafiltration; cow milk whey; 20 nM nominal in whole milk).
`CCc1ccc(CC/C=C/c2ccc3c(c2)C(=O)CC3)cc1` gave an APTT of 20.4 s (Sprague-Dawley rat, male, blood; oral, 450 mg/kg/day, 14 days).
With `COc1cccc(Oc2ccccc2NC(=O)CNC(=O)c2cccc3ccccc23)c1` the serum albumin was 3 g/dL (esterase-deficient SCID mice, male; oral, 40 mg/kg/day, 14 days, toxicity study).
For `CO[C@H]1C[C@@H]2CC[C@@H](C)[C@@](O)(O2)C(=O)C(=O)N2CCCC[C@H]2C(=O)O[C@H]([C@H](C)C[C@@H]2CC[C@@H](OC(=O)NCCOCCOCCOCCOCCOCCOCCOCCOCCC(=O)N3CCc4cc(Cn5nc(-c6ccc7oc(N)nc7c6)c6c(N)ncnc65)ccc4C3)[C@H](OC)C2)C[C@@H](O)[C@H](C)/C=C(\C)[C@@H](O)[C@@H](OC)C(=O)[C@H](C)C[C@H](C)/C=C/C=C/C=C/1C`, “incidence of Mucositis TEAE” read 0% (patients with advanced solid tumours; intravenous, 1.6 mg/3 mg weekly, grade ≥3).
`O=c1nc(NO)ccn1[C@@H]1O[C@H](CO)[C@@H](O)[C@H]1O` has a freeze-thaw stability of 101.4 ± 0.54% (rat maternal blood dialysate; 25 ng/mL, low concentration, three cycles, added: molnupiravir 5 ng/mL).
`C[C@@H]1NC(=O)[C@H](CCCCNC(=O)CO/N=C/C(=O)NCCCC[C@@H]2NC(=O)[C@@H](Cc3ccccc3)NC(=O)[C@H](CC(=O)O)NC(=O)CNC(=O)[C@H](CCCNC(=N)N)NC2=O)NC(=O)CNC(=O)[C@@H]2CCCN2C(=O)[C@H](CCCCNC(=O)CO/N=C/C(=O)NCCCC[C@@H]2NC(=O)[C@@H](Cc3ccccc3)NC(=O)[C@H](CC(=O)O)NC(=O)CNC(=O)[C@H](CCCNC(=N)N)NC2=O)NC(=O)[C@H](CCCCNC(=O)[C@H](CCCCN)NC(=O)[C@H](Cc2ccccc2)NC(=O)CNC(=O)CN2CCCNCCNCCCNCC2)NC(=O)[C@H](CCCCNC(=O)CO/N=C/C(=O)NCCCC[C@@H]2NC(=O)[C@@H](Cc3ccccc3)NC(=O)[C@H](CC(=O)O)NC(=O)CNC(=O)[C@H](CCCNC(=N)N)NC2=O)NC(=O)CNC(=O)[C@@H]2CCCN2C(=O)[C@H](CCCCNC(=O)CO/N=C/C(=O)NCCCC[C@@H]2NC(=O)[C@@H](Cc3ccccc3)NC(=O)[C@H](CC(=O)O)NC(=O)CNC(=O)[C@H](CCCNC(=N)N)NC2=O)NC1=O` [copper-64 labelled] gave a tissue uptake of 0.61 ± 0.05 %ID/g (normal mice, pancreas; intravenous, 0.74 MBq, 3 h post-injection).
`C[C@H]1CN(C(=O)CC#N)[C@]12CCN(c1ncnc3[nH]ccc13)C2`: “Cmax at NOAEL” 3030 ng/mL (rat male; oral, 30 mg/kg repeated daily, 3 months, repeated-dose toxicity study).
`NC(=O)[C@H]1CCN(c2ncnc(N)c2F)C[C@@H]1N1CCC[C@@H](Nc2cc(Cl)cc(C(F)(F)F)c2)C1=O` — result for “grade ≥3 anaemia”: 40% (B-cell malignancy patients; oral, 41 mg twice daily, dose).
For `COc1cc2c(Oc3ccc4[nH]c(C)cc4c3F)ccnc2cc1OCC1(N)CC1`, “grade 1 or 2 Nausea” read 9.1% (paediatric recurrent refractory sarcoma; 12 mg).
For `C[C@]1(CO)Cc2ncn(-c3ccc(C#N)c(Cl)c3)c2C(=O)O1`, “subjects with drug-related headache” read 0% (human; 10 mg multiple doses, fasted).
`[Cl][212Pb][Cl]` has a tissue uptake of 0.41 ± 0.07 %ID/g (athymic mice, C4-2 xenograft, testes; intravenous, 2 h, 212Pb-labelled).
`Cc1cccc(Cn2nc(C3CC3)c3c(NC(=O)c4cnc5cc(OCCN6CCN(C)CC6)ccn45)cccc32)n1` — result for “adverse events incidence”: 31.6% (measured: Lipase increased; human advanced solid tumours; oral, dose not given, all-causality,, all doses).
`COc1ccnc(C(=O)N[C@H]2COC(=O)[C@H](Cc3ccccc3)[C@@H](OC(=O)C(C)C)[C@H](C)OC2=O)c1OCOC(=O)C(C)C`: “Freundlich coefficient KF” 470 mL/g (soil adsorption; soil; pH 6.9, organic carbon 0.8 %).
Under “dose-normalised free AUC(0-24)”, `CC(C)(C(=O)NC1C2CC3CC1CC(C(N)=O)(C3)C2)N1CCN(c2ccc(C(F)(F)F)cn2)CC1` (centres unmarked) is recorded as 1.6 (ng·h/mL)/mg (human, plasma; 2 mg once daily, 5 days, median).
For `O=C1Nc2cc3[nH]nc(-c4ccncc4)c3cc2CN1Cc1ccccc1`, “patients with TEAE” read 22% (measured: Diarrhea; patients with advanced solid tumours; intravenous, dose not given).
`O=S(=O)(Nc1ccccc1)c1ccc(NC(=S)Nc2ccccc2)cc1` — result for “blood cell fraction”: 76.5% (measured: LY%; male mouse, blood; oral, 5 mg/kg daily, 14 days).
For `CC(C)(O)c1cc(Nc2cc(Oc3cn(C4CC4)nc3C3CCOCC3)ccn2)ccn1`, “treatment-related adverse events” read 0% (Thrombocytopenia; patients with advanced cancer, grade 4 glioma expansion; oral, 50 mg twice daily, grade ≥3, 2 weeks on/2 weeks off schedule).
With `CC[C@H](C)[C@H](NC(=O)[C@H](Cc1ccccc1)NC(=O)[C@H](CCC(=O)O)NC(=O)[C@H](CCCNC(=N)N)NC(=O)[C@H](C)NC(=O)[C@H](C)NC(=O)[C@H](CCC(N)=O)NC(=O)[C@H](CCC(=O)O)NC(=O)[C@H](CCC(=O)O)NC(=O)[C@H](CC(C)C)NC(=O)[C@H](Cc1ccc(O)cc1)NC(=O)[C@H](CO)NC(=O)[C@H](CO)NC(=O)[C@@H](NC(=O)[C@H](CC(=O)O)NC(=O)[C@H](CO)NC(=O)[C@@H](NC(=O)[C@H](Cc1ccccc1)NC(=O)[C@@H](NC(=O)CNC(=O)[C@H](CCC(=O)O)NC(=O)[C@H](C)NC(=O)CCc1cnc[nH]1)[C@@H](C)O)[C@@H](C)O)C(C)C)C(=O)N[C@@H](C)C(=O)N[C@@H](Cc1c[nH]c2ccccc12)C(=O)N[C@@H](CC(C)C)C(=O)N[C@H](C(=O)N[C@@H](CCCNC(=N)N)C(=O)NCC(=O)N[C@@H](CCCNC(=N)N)C(=O)N[C@@H](CCCCNC(=O)COCCOCCNC(=O)COCCOCCNC(=O)CC[C@H](NC(=O)CCCCCCCCCCCCCCCCC(=O)O)C(=O)O)C(=O)NCC(=O)NCC(=O)N[C@@H](CO)C(=O)N[C@@H](CCCCNC(=O)[C@H](CCCCNc1c(NCCCCCN(O)C(=O)CCC(=O)NCCCCCN(O)C(=O)CCC(=O)NCCCCCN(O)C(C)=O)c(=O)c1=O)Nc1c(NCCCCCN(O)C(=O)CCC(=O)NCCCCCN(O)C(=O)CCC(=O)NCCCCCN(O)C(C)=O)c(=O)c1=O)C(=O)O)C(C)C` [zirconium-89 labelled] the tissue uptake was 0.25 %ID/g (ex vivo gamma counting; male Sprague-Dawley rats, colon; intravenous, 1 nmol, 24 h).
For `CCNCCCNC/C=C\CNCCCNCC`, “drug-related TEAE, nervous system” read 21.7% (human, advanced solid tumours; intravenous, dose not given; reference: patients).
The AST of `CC(C)[C@@H]1NC(=O)CNC(=O)[C@H](CC(N)=O)NC(=O)[C@H](CCCNC(=N)N)NC(=O)[C@H](Cc2ccc(O)cc2)NC(=O)[C@H](C(C)C)NC(=O)[C@@H](NC(=O)[C@@H](NC(=O)[C@H](CC(N)=O)NC(=O)[C@H](Cc2c[nH]c3ccccc23)NC(=O)[C@H](C)NC(=O)[C@H](Cc2ccccc2)NC(=O)CN)C(C)C)CSSC[C@@H](C(=O)N[C@@H](Cc2cnc[nH]2)C(=O)N[C@@H](CCCNC(=N)N)C(=O)N[C@@H](CCCNC(=N)N)C(=O)N[C@@H](C)C(=O)N[C@@H](CC(N)=O)C(N)=O)NC(=O)[C@H](C(C)C)NC(=O)[C@H](CCCNC(=N)N)NC1=O` is reported as 25.9 ± 1.01 IU/L (ICR mice, serum; intraperitoneal, 10 mg/kg, day 5).
`CC1(C)C(/C=C(\Cl)C(F)(F)F)C1C(=O)OC(C#N)c1cccc(Oc2ccccc2)c1` (centres unmarked): “enzyme contribution to clearance” 0.43% (measured: CYP2C19; human, age 1 year).

Excerpt of the above:
For `O[C@H]1CCCN[C@@H]1CCCn1cnc2c(Cl)c(Cl)ccc21`, “median Tmax at steady state” read 5 h (healthy humans, plasma; oral, 150 mg, added: pirfenidone 600 mg).
For `Clc1ccc(-c2ccccc2)cc1`, “blood urea nitrogen” read 18 ± 4 mg/dL (female Sprague-Dawley rats, serum; inhalation, 23 µg/rat, 4 h after exposure).
